Assay results pooled from the literature.
Parts stem from different laboratories: compare values within a part only.

Block 1
Target: Histone acetyltransferase KAT6A, winged helix 1, GST fusion (KAT6A, Homo sapiens, UniProt Q92794, residues 1-85)
Method: protein binding microarray
Molecule type: double-stranded DNA, one strand shown
Matrix: in vitro
Tested at: not given
Notes: 8-mer, flanks averaged, mean of 2 arrays, mostly near background
Relative to: not given
Direction: higher = stronger binding
Endpoint: E-score
Residues (chain): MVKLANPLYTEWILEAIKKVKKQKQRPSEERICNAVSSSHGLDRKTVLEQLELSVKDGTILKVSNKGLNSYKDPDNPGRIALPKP
GTTCCAAA: -0.24
GAATAGGA: -0.0158
GCATGCTA: 0.00867
CGAAGTCC: 0.139
AAGGCGCG: 0.375
CTGACGGA: 0.12
AAATTAGC: 0.0927
CAGCCATG: -0.142
GCCTAGTA: 0.00191
AGCTCAAC: -0.118
ACTAGCAA: -0.0844
ACATTACA: -0.0384
GTTAGACA: -0.119
ACGTAACG: 0.0677
CCAAGATA: -0.232
TCACTAGA: -0.0175
GCTTCAGA: -0.219
AACAATTA: -0.0317
CCGTTAGA: 0.204
GGTGTACA: 0.0042
AACGAACG: 0.0556
AACTTAGC: -0.104
GGCGCTGA: 0.282
ACTGCGAA: 0.0789
GCGCTACA: 0.263

Block 2
Target: RNA binding protein fox-1 homolog 2, RRM domain, GST-SBP tag (RBFOX2, Homo sapiens, UniProt O43251-10, residues 100-194)
Method: RNA Bind-n-Seq
Molecule type: RNA
Matrix: in vitro
Tested at: 365 nM
Notes: natural RNA segment, single round, ends assumed
Relative to: no-protein control
Direction: higher = stronger binding
Endpoint: RBNS enrichment (R)
Shared flanks, not repeated: GGGAGUUCUACAGUCCGACGAUC … UGGAAUUCUCGGGUGCCAA
Residues (chain): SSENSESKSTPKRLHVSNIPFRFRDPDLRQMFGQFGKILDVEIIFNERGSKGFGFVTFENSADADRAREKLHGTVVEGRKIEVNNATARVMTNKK
UGGAUACCUUUGAACUCCAUGGUUACGUGUUAGGUCCACAUUUGUGUUUUUUUCUAGCCUACCUAUAGUUGUUGGCCUUUUUGCAUAUAACUCUCGGGUAAUAUUUUGAA: 3.49
CUGCGAAGUUUAAUGAUCCACAAGUGUAUAUAUGAAAUUCUCCUCCUUCCUUGCCCCCCUCUCUUUCUUCCCUCUUUCCCCUCCAGACAUUCUAGUUUGUGGAGGGUUAU: 0.836
GAAGAGUUGGGGCACAGCCAGUUCUGAAUGUUGGUGGAGGGUGUAGUGGCUUUUUGGCUCAGCAUCCAGAAACACCAAACCAGGCUGGCUAAACAAGUGGCCGCGUGUAA: 0.314
AGCCAGACCAAUAAAAAGCGUCUGUCCCACUCUGCUAAGCCUGGUUUUCUUGAGCAGAGGGAUGGAACAGAGGGUGAGAGAGGCAGUGGCCGUCUCCACCUCAGCUCCUG: 0.376
GUUAUAUAUAAUUAUCCCUUUAAUUAAAGGGAACAGAUGGGCGUUUCUAGUUUUAAGCAGGCAGGAGCUUGGGACUAGGUUUGGUCACAGCAGCGAGCAUCCAAGGGUUG: 1.04
CUCACUGUAUUCUUUUUAUCCUGGGGCCACAGUUCUUGAUUAUUCCUCUUGUGGUUAAAGACUGAAUUUGUAAACCCAUUCAGAUAAAUGGCAGUACUUUAGGACACACA: 0.304
AAAGCACUGAUCGUUCUCCAGUUCUUGCCAAGAUCAUCCCAAGUUGGAUAUCAUCAAAACUAUCUUUGUGCUCCCAAAACUUGGUGUUCAUGUGUAUCCCUUUAAGUUGU: 0.443
UGAUUAUAGCUAUGAGCCUUAUGGUAGACACUAUGUACCCUCUGCGGUGUAAUUGCAUUAUAGCUAUGUGCCUUGUGGUAAGCACUAUGUACUCUCUGCAUUGUCCAAAU: 2.91
UACCUAUACAUACGUGCACACACACAUACAUAUUCAUACACAAUUCAUACACAUGCAAUCAUACAUGCACACUGACUCUGAACUGGGUGAACUCUGUGGAGGGAGGCCCA: 0.817
UUUCAAAAGAUAAAAGAGAAUAAUGGGUUCUUUGUAUUGGCACUUUGCACCAGAAGCAUAUCAUUAUUUAUUGCUGUGAUUACUAUCUGUCAUCCACCUUGUACUAGAAA: 0.529
GGGAAGUGACGGUUCUUAGAGGAGAAAAGCAAAAGGCUUGGGAGAUCCACAUGGCCUGUCCCCGUGAAGGCCAAAAAGCAUUUUCUCUCCAACUCCUUCUGGGAAGGUUG: 0.549
UUUUUUUUUUGCAUCAUUUGUCUUUAAUAUUCAUAAUGUCAUGUGCUUAAAAGUGAGCUUGAAACGUGUGCUUACUAUCUCAUCUCUUCCCUAGUCUUAGUAUUGGACGC: 0.49

Block 3
Target: Fragile X messenger ribonucleoprotein 1, C-terminal low-complexity region (Fmr1, Mus musculus, UniProt P35922)
Method: RNA Bind-n-Seq
Molecule type: RNA
Matrix: in vitro
Tested at: 200 nM
Notes: whole 134-nt RNA, ends assumed
Together with: 150 mM KCl
Relative to: input library
Direction: higher = stronger binding
Endpoint: log2 enrichment
Shared flanks, not repeated: GGGAGUUCUACAGUCCGACGAUC … UGGAAUUCUCGGGUGUCAAGG
UCUGAGGUCACCAAGCCUCCUCCUUGCUUGGAGAACUCCUCGCCUCCCUCCAGGAUUCCGGAGCCUGAAUCCCCAGCGAAGCCAAACGUC: -0.0472
CAAGUCCUGUGCUACACAUCGUAUGUACCGAAUCGGGAGGGUUUGGGAAAAAGGGAAAGUAUUAUGUUACGCCGUUCGGAUCUGCACUUC: 0.78
CCUGUGCUACACAUCGUAUGUACCGAAUCGGGUUUUUUGGGUUUUUUGGGGUUUUUUGGGGAAAGUAUUAUGUUACGCCGUUCGGAUCUG: -0.581
CAAGUCCUGUGCUACACAUCGUAUGUACCGAAUCGGAAAAGGAAAAGGAAAAGGGAAAGUAUUAUGUUACGCCGUUCGGAUCUGCACUUC: -0.694
GCAGGAAGUAAAAACACAUGGAAAUGCUUCGGAUAGUGGCAGGGGUGGGGGUUGCUAAGGAAAGGGUGGGAUGGGAGUGGGUAAAGAGUU: 0.0354
CACAGACAACACGCACCCACACAGACACAGAGGGAAGGGGUUGGGAUGGGGAAAAGGUGCACAGCAGGGCGGGGUAGGACCCCAGCCCCU: 1.25
GCAGGAAGUAAAAACAAAUGGAAAUGCUUCGGAUAGUGGCAGGGGUGGGGGGUGCUAAGGAAAGGGUGGGAUGGGAGUGGGUAAAGAGUU: 0.295
CCUGUGCUACACAUCGUAUGUACCGAAUCGGGGAAAAAAAGGGGAGGGGUUUUUUUGGGGAAAGUAUUAUGUUACGCCGUUCGGAUCUGC: 0.173
UUACACAAACCUGCAGGUGAAGACAGGCCAGCGGACCCUCAUCAACCCCAAGCCCUGUGGCCAGUUUUGCUGCUGUGAAGUGCUGGGCUG: -0.473
CUCAAGUCCUGUGCUACACAUCGUAUGUACCGAAUCGGUUUUUGGAGGAAAGGAAAGUAUUAUGUUACGCCGUUCGGAUCUGCACUUCCA: -0.253

Block 4
Target: Sal-like protein 4, full length isoform B (SALL4, Homo sapiens, UniProt Q9UJQ4-2, residues 1-616)
Method: universal PBM
Molecule type: double-stranded DNA, one strand shown
Matrix: in vitro
Tested at: not given
Notes: 8-mer, flanks averaged, mean of replicates
Direction: higher = stronger binding
Endpoint: E-score
GGATGAAC: 0.00321
CATGCGGA: -0.184
ACCATTCA: 0.103
GACGGCGC: -0.252
GGTCCGTA: -0.195
AACGAACG: -0.0123
ACCTTTGC: 0.0648
AATAATGG: 0.281
TGGTTCAA: 0.0867
CCCTGGAG: -0.354
TGAATACA: 0.29
AGAGTCTA: 0.178
CAACTCTA: -0.0118
CACAGATC: -0.149
CCCTGTCG: -0.314
AAGGGCGG: -0.25
GCCCGAGC: -0.275
AGTCGTAC: -0.0823
AGACGGTG: -0.224
CGCGCCCA: -0.314
GCTCTGAC: -0.202
GGTGAACC: -0.217
ATACACTC: 0.208
CGGTTGGC: -0.246
AAACAGGG: -0.125

A few entries again (block 2):
AGCCAGACCAAUAAAAAGCGUCUGUCCCACUCUGCUAAGCCUGGUUUUCUUGAGCAGAGGGAUGGAACAGAGGGUGAGAGAGGCAGUGGCCGUCUCCACCUCAGCUCCUG: 0.376
GUUAUAUAUAAUUAUCCCUUUAAUUAAAGGGAACAGAUGGGCGUUUCUAGUUUUAAGCAGGCAGGAGCUUGGGACUAGGUUUGGUCACAGCAGCGAGCAUCCAAGGGUUG: 1.04
CUCACUGUAUUCUUUUUAUCCUGGGGCCACAGUUCUUGAUUAUUCCUCUUGUGGUUAAAGACUGAAUUUGUAAACCCAUUCAGAUAAAUGGCAGUACUUUAGGACACACA: 0.304
AAAGCACUGAUCGUUCUCCAGUUCUUGCCAAGAUCAUCCCAAGUUGGAUAUCAUCAAAACUAUCUUUGUGCUCCCAAAACUUGGUGUUCAUGUGUAUCCCUUUAAGUUGU: 0.443
UGAUUAUAGCUAUGAGCCUUAUGGUAGACACUAUGUACCCUCUGCGGUGUAAUUGCAUUAUAGCUAUGUGCCUUGUGGUAAGCACUAUGUACUCUCUGCAUUGUCCAAAU: 2.91
UACCUAUACAUACGUGCACACACACAUACAUAUUCAUACACAAUUCAUACACAUGCAAUCAUACAUGCACACUGACUCUGAACUGGGUGAACUCUGUGGAGGGAGGCCCA: 0.817
UUUCAAAAGAUAAAAGAGAAUAAUGGGUUCUUUGUAUUGGCACUUUGCACCAGAAGCAUAUCAUUAUUUAUUGCUGUGAUUACUAUCUGUCAUCCACCUUGUACUAGAAA: 0.529
